Results from different studies.
Each line is one published result; not all experiments were run side by side. Several values in a cell are separate wells, animals, samples, runs or records. ± marks the error that the study gave.
Cell line: Vero

CC(=O)OC[C@H]1O[C@@H](Sc2sc(C(=O)c3ccc(C)cc3)c(N)c2-c2nc3ccccc3s2)[C@H](OC(C)=O)[C@@H](OC(C)=O)[C@@H]1OC(C)=O  maximum non-toxic concentration (cytotoxicity; 72 h): 90 µg/mL
Cc1ncc([N+](=O)[O-])n1CCOCc1nnc(SCC(=O)c2ccc(F)cc2)o1  viability (cell growth or viability, MTT; 6 µM, 48 h): 102%
Cc1ccc(C(=O)c2sc(S)c(-c3nc4ccccc4s3)c2N)cc1  maximum non-toxic concentration (cytotoxicity; 72 h): 90 µg/mL
CC(=O)OCC1OC(n2cc(C=CBr)c(=O)[nH]c2=O)C2CC=CCC12 (mixture of isomers)  IC50 (cytotoxicity; 3 days): > 100 µM
Nc1c(C(=O)c2ccc(Br)cc2)sc(S)c1-c1nc2ccccc2s1  maximum non-toxic concentration (cytotoxicity; 72 h): 100 µg/mL
Cc1ncc([N+](=O)[O-])n1CCOCc1nnc(SCC(=O)c2ccc(Cl)cc2)o1  viability (cell growth or viability, MTT; 6 µM, 48 h): 98.4%
CC(=O)OC[C@H]1O[C@@H](Sc2sc(C(=O)c3ccc(Cl)cc3)c(N)c2-c2nc3ccccc3s2)[C@H](OC(C)=O)[C@@H](OC(C)=O)[C@H]1OC(C)=O  maximum non-toxic concentration (cytotoxicity; 72 h): 90 µg/mL
CN[C@@H]1[C@H](O)[C@H](NC)[C@H]2O[C@]3(O)[C@H](O[C@@H]2[C@H]1O)O[C@H](C)C[C@]3(O)CNCc1ccc(F)cc1  IC50: > 100 µg/mL
O=c1c(-c2nc3ccccc3s2)cc2c(n1NS(=O)(=O)c1ccc(Cl)cc1)CCCCCC2  maximum non-toxic concentration (trypan blue; 72 h): 130 µg/mL
COc1cc(C2COc3cc(O)cc(O)c3C2=NO)c(OC)cc1O (stereo not drawn)  IC50 (cytotoxicity, MTT; 72 h, 10% fetal bovine serum): 104 ± 25 µM
O=c1c(O)c(SCc2ccccc2)ccc(SCc2ccccc2)c1O  cytotoxicity (MTS; up to 100 µM): not toxic
O=C1C=C(c2coc3cc(O)cc(O)c3c2=O)C(=O)C([N+](=O)[O-])=C1O  IC50 (cytotoxicity, MTT; 72 h, 10% fetal bovine serum): 24.6 ± 3.79 µM
CN[C@@H]1[C@H](O)[C@H](NC)[C@H]2O[C@]3(O)[C@H](O[C@@H]2[C@H]1O)O[C@H](C)C[C@]3(O)CNCc1ccc(OC(F)(F)F)cc1  IC50: > 100 µg/mL
O=C(C=CC(Cc1ccccc1)Nc1ccnc2cc(Cl)ccc12)NCC(=O)NCc1ccccc1 (stereo not drawn)  cytotoxicity (MTT; concentration not given): not toxic
CCOC(=O)c1cc(-c2nc3ccccc3s2)c(=O)n(NS(=O)(=O)c2ccc(Cl)cc2)c1N  maximum non-toxic concentration (trypan blue; 72 h): 130 µg/mL
CC(=O)OCC1OC(n2cnc3c(Cl)nc(Cl)nc32)C2CC=CCC12 (mixture of isomers)  IC50 (cytotoxicity; 3 days): 18.9 µM
Cc1ncc(COP(=O)(O)O)c(C=NNC(=N)NO)c1O  cytotoxicity (cell morphology; 100 µM): not toxic
CN[C@@H]1[C@H](O)[C@H](NC)[C@H]2O[C@]3(O)[C@H](O[C@@H]2[C@H]1O)O[C@H](C)C[C@@]3(O)CNCc1ccccc1  IC50: > 100 µg/mL
Nc1c(C(=O)c2ccc(Cl)cc2)sc(S)c1-c1nc2ccccc2s1  maximum non-toxic concentration (cytotoxicity; 72 h): 70 µg/mL and 80 µg/mL
O=c1c(-c2nc3ccccc3s2)cc2c(n1NS(=O)(=O)c1ccccc1)CCCCCC2  maximum non-toxic concentration (trypan blue; 72 h): 140 µg/mL
CC(=O)OC[C@H]1O[C@@H](Sc2sc(C(=O)c3ccc(Br)cc3)c(N)c2-c2nc3ccccc3s2)[C@H](OC(C)=O)[C@@H](OC(C)=O)[C@H]1OC(C)=O  maximum non-toxic concentration (cytotoxicity; 72 h): 100 µg/mL
NNC(=O)/C=C/c1ccc(N)cc1  IC50 (cytotoxicity, MTT): 242 ± 0.02 µg/mL
Nc1nc(Cl)nc2c1ncn2C1OC(CO)C2CC=CCC21 (mixture of isomers)  IC50 (cytotoxicity; 3 days): > 100 µM
Cc1ccc(O)c(C=NNC(=N)NO)n1  TC50 (cell growth, Coulter counter; 2 days): 389 µM
CC(=O)OCC1OC(n2ccc(=O)[nH]c2=O)C2CC=CCC12 (mixture of isomers)  IC50 (cytotoxicity; 3 days): > 100 µM
Cc1ncc([N+](=O)[O-])n1CCOCc1nnc(SCC(=O)c2ccc(Br)cc2)o1  viability (cell growth or viability, MTT; 6 µM, 48 h): 104%
CC(=O)O[C@@H]1[C@@H](OC(C)=O)[C@H](Sc2sc(C(=O)c3ccc(Br)cc3)c(N)c2-c2nc3ccccc3s2)OC[C@@H]1OC(C)=O  maximum non-toxic concentration (cytotoxicity; 72 h): 100 µg/mL

For quick reference, copied from above:
CC(=O)OCC1OC(n2cnc3c(Cl)nc(Cl)nc32)C2CC=CCC12 (mixture of isomers)  IC50 (cytotoxicity; 3 days): 18.9 µM
CN[C@@H]1[C@H](O)[C@H](NC)[C@H]2O[C@]3(O)[C@H](O[C@@H]2[C@H]1O)O[C@H](C)C[C@]3(O)CNCc1ccc(OC(F)(F)F)cc1  IC50: > 100 µg/mL
NNC(=O)/C=C/c1ccc(N)cc1  IC50 (cytotoxicity, MTT): 242 ± 0.02 µg/mL
